Published values collected from several papers.
Each numbered part is a random draw from the data of one study; scales do not carry over between parts.

Series 1
Target: Centromere-binding protein 1, full length, His-tagged (CBF1, Saccharomyces cerevisiae, UniProt P17106, residues 1-351)
Chain of UniProt P17106 (whole entry, looked up): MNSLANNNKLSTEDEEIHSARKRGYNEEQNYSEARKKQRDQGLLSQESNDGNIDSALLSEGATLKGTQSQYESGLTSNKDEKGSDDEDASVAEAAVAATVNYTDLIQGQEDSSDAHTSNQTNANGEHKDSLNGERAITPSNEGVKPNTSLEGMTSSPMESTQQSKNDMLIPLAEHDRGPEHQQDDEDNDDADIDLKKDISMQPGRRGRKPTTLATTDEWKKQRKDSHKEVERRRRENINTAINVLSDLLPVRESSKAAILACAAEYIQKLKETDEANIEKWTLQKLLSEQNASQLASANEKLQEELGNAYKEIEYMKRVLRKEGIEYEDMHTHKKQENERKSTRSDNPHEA
Technique: competition protein-binding microarray
Molecule type: double-stranded DNA, one strand shown
Medium: in vitro
Concentration: 2 µM
Setting: whole 60-bp probe, lowest competitor level
With: Pho4 competitor, 0.05 µM
Reading: higher = stronger binding
Constant ends, left off below: … GTCTTGATTCGCTTGACGCTGCTG
`GGTAACACCTTCGAAACCGTGACTCGTCTTGACAGC` gave a fluorescence intensity of 124 a.u.
`ATAGGTGCCATCACAATCGTGCCGAAATCTACCACT` has a fluorescence intensity of 54.2 a.u.
`CAGCTTCAACCAAATAACGTGGAGGTTCAGGAACAA` gave a fluorescence intensity of 92.4 a.u.
With `GACGACAACAACTGTCATGTGGAAGATAGCCAAAAT` the fluorescence intensity was 176 a.u.
`ACATACCATATCCTGAACGTGAAGATCCCAGATGGA` gave a fluorescence intensity of 73.4 a.u.

Series 2
Target: RNA binding protein fox-1 homolog 2, RRM domain, GST-SBP tag (RBFOX2, Homo sapiens, UniProt O43251-10, residues 100-194)
Technique: RNA Bind-n-Seq
Molecule type: RNA
Medium: in vitro
Concentration: 365 nM
Setting: natural RNA segment, single round, ends assumed
Reference: no-protein control
Reading: higher = stronger binding
Constant ends, left off below: GGGAGUUCUACAGUCCGACGAUC … UGGAAUUCUCGGGUGCCAA
Construct (chain): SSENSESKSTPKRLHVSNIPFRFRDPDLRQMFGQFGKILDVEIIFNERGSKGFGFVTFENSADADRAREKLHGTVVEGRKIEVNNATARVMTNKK
Under “RBNS enrichment (R)”, `UUGUAUAAAUUUGUCAUGUUGAACAGCAUUUUAGCAUGGUAAGUUCCCUUAGCUAUAUGAAUUUUGGCAUGUUUCAGAGAGAUCAGUAAAUAAAAUAUUAGAUAAAAUAU` is recorded as 1.32.
Under “RBNS enrichment (R)”, `GCCAGGCAGUAUAUCCAGUUAGAACUUCCGGCUUUUGCAUUAGCUUGUCUGAUGCUCAUGCCCCACUCAGAGAAAAGACACCAGCAAAUUAAGGAUUUUCUGGGUUCCUG` is recorded as 0.335.
For `CCUUUUAAUGAUGAGGGUAACUAUUUCAGUUGUGAGCCUUCUAGGGCCCCAGGCUGGGAGGCUCAGAGGACUGAAUCUGGGACCUGUGUUCCCCCCGGCAGGCAGGGACA`, “RBNS enrichment (R)” read 0.489.
Under “RBNS enrichment (R)”, `CAAAAUGACCCAACGAUGUCCACACACCACCAAAACCCAGCCAAUGGGCCACCUCUUCCUCCAAGCCCAGAUGCAGAGAUGGUCAUGGGCAGCUGGAGGGUAGGCUCAGA` is recorded as 0.266.
`CAAUGUCCACCCCUGCCUCCCCUUCACUGGGGACUGGGGUUUUCGCCCCAUGCUGCAUCGUGUUGUAUUGGGAUGGGGCUGAGGAACAUGCUCCCUCCCUCCCUCCCAUA` — result for “RBNS enrichment (R)”: 0.466.

Series 3
Target: TAR DNA-binding protein 43, full length, His tag (TARDBP, Homo sapiens, UniProt Q13148, residues 1-414)
Technique: RNA Bind-n-Seq
Molecule type: RNA
Medium: in vitro
Concentration: 20 nM
Setting: 6-mer, flanks averaged, single round
With: 150 mM LiCl
Reference: input library
Reading: higher = stronger binding
`UUGGUG`: “6-mer enrichment (R)” 1.41.
`GAGAGA`: “6-mer enrichment (R)” 1.09.
For `AAGACC`, “6-mer enrichment (R)” read 0.807.
For `GUGACA`, “6-mer enrichment (R)” read 0.972.
`AGCGGC` — result for “6-mer enrichment (R)”: 0.976.

Further values, each from its own experiment
`PhoQ, residues 284 288 289 292 302 303 TNASYF` gave a fold induction of 8.1 (PhoP, residues 12 14 15 18 19 SQCLL (Escherichia coli, UniProt P23836); Sort-seq, item: YFP reporter; E. coli; PhoQ-PhoP variant library, with: 10 µM Mg2+; reference: high Mg2+ state, higher = stronger signaling).

A few entries again (series 2):
For `CCUUUUAAUGAUGAGGGUAACUAUUUCAGUUGUGAGCCUUCUAGGGCCCCAGGCUGGGAGGCUCAGAGGACUGAAUCUGGGACCUGUGUUCCCCCCGGCAGGCAGGGACA`, “RBNS enrichment (R)” read 0.489.
